Published values pooled from the literature.
Each numbered part is a random draw from the data of one study; scales do not carry over between parts.

Block 1 — technique: RNA Bind-n-Seq; form: RNA; sample: in vitro; tested at: not given; reference: input RNA pool; direction: higher = stronger binding
Target: RING finger protein unkempt homolog, zinc fingers 1-6, GST-SBP tag (UNK, Homo sapiens, UniProt Q9C0B0, residues 30-357)
Sequence of UniProt Q9C0B0 (30-357, looked up): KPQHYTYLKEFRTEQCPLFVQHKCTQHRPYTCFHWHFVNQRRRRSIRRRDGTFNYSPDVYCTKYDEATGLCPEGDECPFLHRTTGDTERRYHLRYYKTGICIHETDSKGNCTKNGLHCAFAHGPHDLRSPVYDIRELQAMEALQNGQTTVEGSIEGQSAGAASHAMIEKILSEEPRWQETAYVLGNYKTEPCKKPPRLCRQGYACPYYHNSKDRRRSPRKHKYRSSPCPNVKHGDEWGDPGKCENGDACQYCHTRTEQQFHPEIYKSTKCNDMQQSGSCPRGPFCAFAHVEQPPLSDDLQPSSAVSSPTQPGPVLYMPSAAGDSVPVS
Notes: RNA with constant flanks, human and mouse sites, ends assumed
| Oligonucleotide | bound/input enrichment |
| --- | --- |
| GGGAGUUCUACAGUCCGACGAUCGCCUGGGCUCUCUUGGGCUUUAUCCAUGUCUUUAGAUUUGUGUUUGCCUUUUGUUUUUUUAACCGCGCAGUUCAUUGGCCACUCUGCACGCAUUCAGUAUUACCAUGGAGCUGGGAAUCUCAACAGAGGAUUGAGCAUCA | 0.439 ratio |
| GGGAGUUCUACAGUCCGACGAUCAACAAUCCAUAUGCAACUGAAGAAGAAAAUUCAAAUGAGCUCAGUAUAAAUACUGAAGUGUAUUCCUUACCGUCAAAGAAGCUAGUGGUGCUUCAGUUAAGGUCCAUCUUUAUUAAGUACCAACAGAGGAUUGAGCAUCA | 0.222 ratio |
| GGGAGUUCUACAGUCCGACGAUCCCUUGGCGGAUUGUAAGCUGCUGGUUUUGCGGCUGGGAAGAGCGGCGAGAGGGUUCGGCAUUUUUCGUCGGGAUCCCCGCAAGGAUGAGUGCUGCCAGAGAGUCUCACCCGCAUGGGGUGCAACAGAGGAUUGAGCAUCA | 0.147 ratio |
| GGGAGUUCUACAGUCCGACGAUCAACGUGGCAUUCAUGAGCUAUUUUUUACAGGGCAAGCUUGAUGCUUGCCUAGAGCUCUUGAUCAGAACAGGAAGACUCCCAGAAGCUGCCUUCCUGGCCCGAACUUACUUACCCAGUCAGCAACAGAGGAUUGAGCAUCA | 0.135 ratio |
| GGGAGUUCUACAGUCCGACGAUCAAUGCCUCAGUAGUGGGAACGGCAGGGCUUAAAGAGCCGAUGCCAGCCCAGGUGUUUCUGGCUGUGCUCUAGUGACGGAAAUGUAAGUACUUUAAUUGUGAGAACGGAGAGUUGAUUAAACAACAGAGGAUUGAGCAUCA | 0.312 ratio |
| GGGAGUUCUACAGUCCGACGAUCAUGAUGGAAUUGCUUUUUCUUUUGUCUUGUGAUUUUUUUUUUUGAAGUGAAAUUUAACUUUUUGUGCAAGUAGUACUAUUAUACCCAUCUUCAGUGUCUUACUUGUACUGUAUCACAUUCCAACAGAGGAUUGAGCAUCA | 0.496 ratio |
| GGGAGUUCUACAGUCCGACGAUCGUACAACUAAUGCUGCUCCAGGAGCGCAGCUCAGUAGCAGAGCAUAUGCUUAGCAUGUGCUUAGCAUGCUCAGGGACUUGAAUUCAGUCUCCCAUGACAAAGAAAAGGGGGUGGGCCAGACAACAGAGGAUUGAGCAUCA | 0.281 ratio |
| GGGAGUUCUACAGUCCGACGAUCAGGUUGGGGCAUGAGUGGGCAUUUUCCUAAUGACUUGCUGCUAGGAGGUUAUAGGCAGGGAACAGUCUGGGAGUCUCUAAUCCAGAGAGACUUUCAGAUUCCCUCUCUUCACAUGAACCUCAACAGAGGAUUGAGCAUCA | 0.111 ratio |
| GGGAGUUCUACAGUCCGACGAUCCCAAAACUGAAACUGUGGAUGGCAGCCAUGAAGGAAGAUCCCACAGUCUCAGCCCUGCUUACUAGUGAGAAAGACUGGCAAGGUUUCCUAGAGCUCUACUUACAGAACAGCCCUGAGGCCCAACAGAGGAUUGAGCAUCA | 0.115 ratio |
| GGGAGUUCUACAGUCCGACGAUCCCCCAAAUCCCUCCCUGUUCUACACUGGGGACAGCAGAAUUUUCUCCCCGUCUUCCCCUUCCUGCCAUUUUCCCUCCCUUGAAAGGUUGACACUGGACAACCUUGGGGCAGCUGAGCCCUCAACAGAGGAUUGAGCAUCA | 1.02 ratio |
| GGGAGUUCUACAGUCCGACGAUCUACAGAAAUGCUCUGUUCUACCGCAGCAACAUGGCUGACAUGCUGUAUAAUCUAGGGUUGCUGCUCCAAGAGAACAGCAGGUUUGCAGAAGCUCUUCACUAUUACAAACUGGCCAUUGGGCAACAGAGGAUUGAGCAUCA | 0.129 ratio |

Block 2 — technique: RNA Bind-n-Seq; form: RNA; sample: in vitro; tested at: 365 nM; reference: no-protein control; direction: higher = stronger binding
Target: RNA binding protein fox-1 homolog 2, RRM domain, GST-SBP tag (RBFOX2, Homo sapiens, UniProt O43251-10, residues 100-194)
Notes: natural RNA segment, single round, ends assumed
Construct (chain): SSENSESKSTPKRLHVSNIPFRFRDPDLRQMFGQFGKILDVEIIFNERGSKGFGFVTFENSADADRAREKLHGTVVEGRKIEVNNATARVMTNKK
| Oligonucleotide | RBNS enrichment (R) |
| --- | --- |
| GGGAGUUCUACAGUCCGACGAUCGUUUGUAUCCUCUUUUAUUUCCUUGAGCAGUAGCUUGUAGUUCUCCUUGAAGAGGUCCUUCACAUCCCUUGUAAGUUGGAUUCCUAGGUAUUUUAUUCUCUUUGAAGCAAUGGAAUUCUCGGGUGCCAA | 0.65 |
| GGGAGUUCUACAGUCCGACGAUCGUUCUGGAAGAGAUUCAGGUGAAAAGUUGGCGUGGCAUGUUUGAGGACUCUGCGGAUCAGUGCUACAGGAGUACAUCUGCCCUGCCACAUGACUCCAGAAGUCUCUGACCUGGAAUUCUCGGGUGCCAA | 0.546 |
| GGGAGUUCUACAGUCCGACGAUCCCACAUGUGCACAGAGCCAGCUGCAGAGGGCACCACAAGGGCACCUUAACCAGCUCCUGAUCUCAAGAACACUAAAAGGCUAGCCGUUGUCUGUCUAGAGUGAAUACUUCUGGAAUUCUCGGGUGCCAA | 0.229 |
| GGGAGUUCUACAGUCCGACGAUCCCUCUGCCCUUCACACUCUCCUCCAAAAGAGCCUCCAUCUGUAAGGAAGCAGGUCUCCGCGAGGGGUUUCUUUCCAUGUGUUUUCCUCCUGUUGUUUUAGAACUUUUUUAUGGAAUUCUCGGGUGCCAA | 0.755 |
| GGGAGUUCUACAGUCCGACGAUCUAAACAAUCUAAUUAAAUGGCAUCAGCACUUUAACCAAUGACGUUUGCAUAGAGAGAAAUGAUUGACAGUAAGUUUAUUGUUAAUGGUUCUUACAGAGUAUCUUUAAAAGUGGAAUUCUCGGGUGCCAA | 0.431 |
| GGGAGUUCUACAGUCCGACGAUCUGACCAUAGCCUGUCACCACCCAACAUCACCACGGGCUGGGUUUUGUGUUUCACAUUGGGUAGUAUGCAUUCUGUCUGCACUGUCCCACCUUCUCAUCUCUACCUUUUAAUGGAAUUCUCGGGUGCCAA | 0.731 |
| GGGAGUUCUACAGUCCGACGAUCUUUUUCCUGUUCACAAGCUGAGCCAUAUGUACAUAAUCUAGAUUUUGUUUUCAUAGUUUUGCACUUUUAUAGCCUAUUUUUGAAGAUUAACACAUUUGCAAGAUGAUUGAUGGAAUUCUCGGGUGCCAA | 0.419 |
| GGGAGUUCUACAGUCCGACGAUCUUGAUACGAGAAAUAUGGCUUAAGAACACAUGAUGUCUCAGAAGGCCCAUGCGCACACCAGACCGCUGUCUUAGUACUGUCACUGUUGUAAAGGCACAUGUUGGAACACAUGGAAUUCUCGGGUGCCAA | 0.306 |
| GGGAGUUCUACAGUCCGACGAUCAGAUCCAGGUGGGUGAGGGCAGGAGGCCCCUGCGGAGGCAGCGUGGAUCUGCCCACACAUAGGCUACUGGAAUAGUUUAACCCAGCAACUUUCCUUUUUAUAAAACAACAUGGAAUUCUCGGGUGCCAA | 0.687 |
| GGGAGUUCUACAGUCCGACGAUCCUGUGUGGUGUCGCGCCUUCUCCCCCCCGGGGCUGGGUUGGCGCACCCUCCCCUCCCGUCUACUCAUUCCCCGGGGCGUUUCUUUGCCGAUUUUUGAAUGUGAUUUUAAAUGGAAUUCUCGGGUGCCAA | 9.44 |
| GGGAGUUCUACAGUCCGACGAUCCCUAUCUAGCCUUCAGAUGUCCUCCACUGCAGGUCACCCCAGGAGAUAGCAUCAAUAAUAUAGUCUCAGUCUUGUUUAUAAAGAUUCUAAGUUGUCUAGUAAAUAAGUCUUGGAAUUCUCGGGUGCCAA | 0.792 |
| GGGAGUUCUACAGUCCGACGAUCCUAUAAAAAUGAACCUAAUGGGUGGAUUGAAUAUACAUUGAGCCCAAAGUCAAGUUUGGGGAAAAGGCAGACUAAGGCCUCCUUUCUCUGACCUCCCAGGAAGAAAAUAGUGGAAUUCUCGGGUGCCAA | 0.488 |

Block 3 — technique: protein binding microarray; form: double-stranded DNA, one strand shown; sample: in vitro; tested at: not given; reference: not given; direction: higher = stronger binding
Target: Histone acetyltransferase KAT6A, winged helix 2, GST fusion (KAT6A, Homo sapiens, UniProt Q92794, residues 85-181)
Notes: 8-mer, flanks averaged, mean of 2 arrays, mostly near background
Construct (chain): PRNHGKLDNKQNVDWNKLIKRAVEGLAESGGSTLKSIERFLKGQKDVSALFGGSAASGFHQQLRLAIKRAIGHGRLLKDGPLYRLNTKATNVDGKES
| Oligonucleotide | E-score |
| --- | --- |
| AGGTAACG | -0.0197 |
| AGGTAGTC | -0.0749 |
| TGCTGTAA | 0.13 |
| AGTGAACT | -0.0143 |
| CCCCGTGA | 0.0268 |
| ATTACGCA | -0.0325 |
| CCAATACC | -0.174 |
| ATTTTTAA | 0.17 |
| AGCGTGAG | -0.209 |
| CCGATAGG | 0.109 |
| CCCTAGTC | -0.287 |
| ACGCGCTG | 0.0738 |
| CCGTGCAG | -0.0976 |
| ACAAATAA | -0.0864 |
| AACTTTCT | 0.042 |
| AAAACTAC | -0.0247 |
| CACTCATC | -0.061 |
| GTCGAGGA | -0.11 |
| ACGGAGGC | -0.0633 |
| GATGAATC | 0.141 |
| CCACACGA | -0.067 |
| AAGTCCTC | -0.15 |
| ACCTTCCA | -0.0877 |
| AATCTAAA | 0.106 |

Block 4 — technique: protein-binding microarray; form: double-stranded DNA, one strand shown; sample: in vitro; tested at: not given; direction: higher = stronger binding
Target: Cyclic AMP-dependent transcription factor ATF-1 (ATF1, Homo sapiens, UniProt P18846, residues 1-271, full length assumed)
Notes: k-mer, scored over probes, only values ≥0.25
Construct (chain): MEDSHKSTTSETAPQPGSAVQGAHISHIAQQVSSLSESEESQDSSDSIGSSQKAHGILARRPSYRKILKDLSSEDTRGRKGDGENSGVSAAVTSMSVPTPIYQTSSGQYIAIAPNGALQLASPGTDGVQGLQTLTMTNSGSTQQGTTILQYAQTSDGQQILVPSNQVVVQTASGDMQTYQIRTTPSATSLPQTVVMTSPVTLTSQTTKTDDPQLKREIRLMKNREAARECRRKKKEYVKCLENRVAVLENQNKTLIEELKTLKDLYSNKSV
| Oligonucleotide | E-score |
| --- | --- |
| ATCGTCA | 0.433 |
| ATTTACG | 0.277 |
| CATCATC | 0.281 |
| CCCCTCC | 0.337 |
| ATATGAC | 0.366 |
| ACAAGTG | 0.253 |
| AGTAACG | 0.272 |
| CTGTCAC | 0.277 |
| ATTACGC | 0.331 |
| GATGTGA | 0.316 |
| CGTCAGA | 0.414 |
| AACGCGT | 0.288 |
| TCACGGA | 0.259 |
| ATACCAC | 0.269 |
| ACGTAGA | 0.414 |
| GACGAAA | 0.311 |
| TAACGTA | 0.334 |
| CGTATGA | 0.292 |
| CACGTAA | 0.405 |
| ATACGTC | 0.422 |
| ACGCAAT | 0.324 |
| ACGTACA | 0.344 |
| CCGTCAC | 0.441 |
| TACGTCA | 0.494 |
| ATCCACG | 0.259 |

Block 5 — technique: universal PBM; form: double-stranded DNA, one strand shown; sample: in vitro; tested at: not given; direction: higher = stronger binding
Target: Sal-like protein 4, full length isoform B (SALL4, Homo sapiens, UniProt Q9UJQ4-2, residues 1-616)
Notes: 8-mer, flanks averaged, mean of replicates
| Oligonucleotide | E-score |
| --- | --- |
| ATCTTTTC | 0.135 |
| GCACGTAA | 0.0354 |
| CCCTTCGG | -0.366 |
| ACCTCTAC | -0.0651 |
| CAACAGGA | -0.133 |
| CTTGCAAG | -0.0302 |
| CCGGTCCG | -0.426 |
| GGGCACAA | -0.122 |
| CAGCACCA | -0.218 |
| AACATCTA | 0.105 |
| ATGTTGGC | -0.00996 |
| CGGCAGAG | -0.347 |
| CCGCATCC | -0.337 |
| AATCGCCA | -0.0738 |
| CGAGATTA | -0.00644 |
| ATCCCTTC | -0.0429 |
| CTTACACA | 0.0786 |
| CCTAGCAA | 0.00471 |
| CGATGCCG | -0.284 |
| CAACCGTG | -0.13 |
